Results collected from several papers.
Every numbered part comes from another study and shows a few of its results, in no order.

Block 1 — method: aptamer microarray, sandwich; molecule type: DNA with 2'F-ANA; matrix: in vitro; concentration: 200 nM; added: Cy3 exosite-II aptamer, 400 nM; reading: higher = stronger binding; strand: GGTTGGTGTGGTTGG
Target: Prothrombin, mature alpha-thrombin (F2, Homo sapiens, UniProt P00734)
Setting: whole 15-mer aptamer, many near background
`2'F-ANA at 5 8 9 10 11 13` — result for “mean fluorescence intensity”: 50.3 a.u.
For `2'F-ANA at 5 13 14 15`, “mean fluorescence intensity” read 59.4 a.u.
For `2'F-ANA at 1 5 6 8 12 14 15`, “mean fluorescence intensity” read 148 a.u.
Under “mean fluorescence intensity”, `2'F-ANA at 3 5 7 12` is recorded as 298 a.u.
Under “mean fluorescence intensity”, `2'F-ANA at 2 4 8 10 12 13 14` is recorded as 80.5 a.u.
For `2'F-ANA at 1 2 4 6 8 9 11 13`, “mean fluorescence intensity” read 82.9 a.u.
Under “mean fluorescence intensity”, `2'F-ANA at 2 3 4 6 13 14 15` is recorded as 220 a.u.
`2'F-ANA at 2 6 10 13` — result for “mean fluorescence intensity”: 106 a.u.
For `2'F-ANA at 1 3 4 12 14`, “mean fluorescence intensity” read 89.8 a.u.
`2'F-ANA at 3 4 5 8 10 12 14 15`: “mean fluorescence intensity” 67.6 a.u.
For `2'F-ANA at 2 4 7 8 9 10 11 12 14`, “mean fluorescence intensity” read 65.7 a.u.
For `2'F-ANA at 5 6 7 9 11 14`, “mean fluorescence intensity” read 86 a.u.
Under “mean fluorescence intensity”, `2'F-ANA at 3 5 9 10 12 15` is recorded as 66.3 a.u.
`2'F-ANA at 4 5 6 7 8 9 10 15`: “mean fluorescence intensity” 51.5 a.u.
`2'F-ANA at 3 4 5 9 10 12 15` — result for “mean fluorescence intensity”: 78.9 a.u.
`2'F-ANA at 2 3 4 6 8 9 11 14`: “mean fluorescence intensity” 227 a.u.
For `2'F-ANA at 2 6 7 8 10 14`, “mean fluorescence intensity” read 89.8 a.u.
`2'F-ANA at 1 3 4 6 7 8 9 12 14`: “mean fluorescence intensity” 88.8 a.u.
`2'F-ANA at 2 3 5 6 8` — result for “mean fluorescence intensity”: 111 a.u.
Under “mean fluorescence intensity”, `2'F-ANA at 1 2 8 14 15` is recorded as 57.4 a.u.
`2'F-ANA at 1 3 6 7 8 11 12 15` — result for “mean fluorescence intensity”: 446 a.u.
Under “mean fluorescence intensity”, `2'F-ANA at 1 2 6 7 8 10 13 14 15` is recorded as 52 a.u.
For `2'F-ANA at 2 4 8 9 12 13 14 15`, “mean fluorescence intensity” read 102 a.u.
`2'F-ANA at 1 3 5 6 8 10 12 13` — result for “mean fluorescence intensity”: 48.1 a.u.

Block 2 — method: RNA Bind-n-Seq; molecule type: RNA; matrix: in vitro; concentration: not given; setting: RNA with constant flanks, ends assumed; reference: input RNA pool; reading: higher = stronger binding
Target: RING finger protein unkempt homolog, zinc fingers 1-6, GST-SBP tag (UNK, Homo sapiens, UniProt Q9C0B0, residues 30-357)
All sequences stand within: GGGAGUUCUACAGUCCGACGAUC … CAACAGAGGAUUGAGCAUCA
Construct (chain): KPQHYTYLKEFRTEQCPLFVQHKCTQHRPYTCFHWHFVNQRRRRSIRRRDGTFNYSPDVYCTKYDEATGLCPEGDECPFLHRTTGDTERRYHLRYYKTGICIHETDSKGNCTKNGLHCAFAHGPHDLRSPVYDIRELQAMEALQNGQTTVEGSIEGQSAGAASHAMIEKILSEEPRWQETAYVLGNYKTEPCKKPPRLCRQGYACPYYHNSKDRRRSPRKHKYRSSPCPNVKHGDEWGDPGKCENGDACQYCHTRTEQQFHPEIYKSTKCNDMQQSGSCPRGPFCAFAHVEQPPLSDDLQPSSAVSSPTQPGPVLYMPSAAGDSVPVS
The bound/input enrichment of `GCAGGCUACUUUUUGGAACAUCUGGCUUUCAAGGGAACAAAGAAUCGGCCUGGCAAUGCCUCCGAGAAGGAGGUAGAGAGUAUUGGGGCUCAUCUUAAUGCCUACAGCACUCGAGAGCAC` is reported as 0.115 ratio.
`GCAGUUCGCAGAACAGAAACUGGACGCAUCGGAUUAGAAGGCUGCCUUUGUCAAGACUUUUACCGGAUACGAGACCUUUUAUAUGAACAGUAUGCCAUUGUGUAAAGGACAUGAUGUCAA` gave a bound/input enrichment of 0.109 ratio.
`AUGCGUGCUGCUGGAAGGCUCUCCGUUUCUCCGAGAACCGGGAAGGACGUUGGUGCCGAGGACAUUGGCUACCAUGAGUUCCGGUGCGCUGUUGCCCAAACCACAGAUGCGUGGUCUUCU` gave a bound/input enrichment of 0.0541 ratio.
`AGGAAAUGCUGCAAUCAUCCGUAUCUUAUCAAAGGUGCUGAGGAGAAAAUACUUGGAGAAUUCCGAGAUACAUACAAUCCAUCUGCCUCUGAUUUUCAUCUGCAAGCAAUGAUCCAAUCU` has a bound/input enrichment of 0.111 ratio.
The bound/input enrichment of `GCCGGCAUAGAUGGGGUGGUUAGUAUGAGGUUCAAGGUGAAAAGAUCAGAAUACUGAGAGCCGAGUGCCAAAGGGGAAGGGAGACAGAAGCAAGGGAAAUAAAUGACACUAAUAAUGAAA` is reported as 1.06 ratio.
`CAUGUAGGAGCAAAGGCUGUCAUGUCUGUUGUGAGGGACCUGCUGACUAGGCUCUCUGGAACCCGGGCCGCCUGGCCCCUGGCAUUCUGAGGGGUGUGUGCUGCAGAGAGCAUUCAUUGU` has a bound/input enrichment of 0.149 ratio.

Block 3 — method: RNA Bind-n-Seq; molecule type: RNA; matrix: in vitro; concentration: 365 nM; reference: no-protein control; reading: higher = stronger binding
Target: RNA binding protein fox-1 homolog 2, RRM domain, GST-SBP tag (RBFOX2, Homo sapiens, UniProt O43251-10, residues 100-194)
Setting: natural RNA segment, single round, ends assumed
All sequences stand within: GGGAGUUCUACAGUCCGACGAUC … UGGAAUUCUCGGGUGCCAA
Target sequence (chain): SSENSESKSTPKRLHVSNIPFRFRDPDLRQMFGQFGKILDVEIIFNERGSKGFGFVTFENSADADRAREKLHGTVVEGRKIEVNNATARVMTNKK
For `UCUUUUUGACGUGUGUUUUUAGUUUAGAAGUGCUGUAUUCCACAAGGUUUAAGUCAGUGAGGUUGGAAGAUACCCUAUCUUUUUUAUUCAAAAAGCACAAUCAAUCUUUU`, “RBNS enrichment (R)” read 0.542.
`GUUUGUACGCAGUUCAAUUUCAAAAUUGCUAAAAUGUGUUUGAGCUUUAGACUAUAACAUUUGUUGUAAUAAUUGCUAGGUUGAAGUUCAACAUGUAAAAAAAGGGGGCA` — result for “RBNS enrichment (R)”: 1.06.
`CAGAUCAGCAGUCACCCAUCGCUUAGCAUAGAAAUCCCAAAACCUCCAGCCCGGGAACACUAUAAGCUUCGACCAUUCAGGAAUCUGCCCUGCACUUUGCAUAUCUGUAU` — result for “RBNS enrichment (R)”: 2.18.
`UUAUUGCCUUCUCACCAGCUGCAAAGUGUUUUGUACCAGUGAGUUUUUGCAAUAAUGCAGUAUGGUACAUUUUUCAAAUUUGAAUAAAGAAUACUUGAACUUGUUGUUGA` — result for “RBNS enrichment (R)”: 0.303.
`GGCCAGAAAUACAAGGUUGAUGAGUAAGCUAUCUGAAGACUUUUAUAAUGCCUACCUUCAAAACCAGAAUCGGCAGCACUCUACAAAUGAAAGUGCCUGUGUCUCACACC`: “RBNS enrichment (R)” 0.631.
`AAUAUGCUUCCAACCCAAAGGCCUUUCAUCUCAGUAUCUGUCAAACUUGAAUAACGUCUUCUCUUUACUAUUACACACGAGGCAGCCUAUUAACCUGUGUCUUAGAAUUG` — result for “RBNS enrichment (R)”: 0.377.
Under “RBNS enrichment (R)”, `AUAUUUGUGAAAAAUGCCACUGUCCUAGUGAUUUCUGAUGUAAAUAAUGUUGUUUAUAUAGUAUGUAUUAAAUUUUCCUACAUUGUAAAACUGCUGUACUUUUGAUUCUU` is recorded as 0.729.
`UGACUGUGGGUGGACCAUCUCCCCUCUCCGAGCUGUAGACAAAGGAGCUUAGACGCCACAUCAGGGUAAUGAGGGGGAUCACGGAGAAUCAAAACCCUCAGAGGGUCCUG`: “RBNS enrichment (R)” 0.418.

Block 4 — method: protein binding microarray; molecule type: double-stranded DNA, one strand shown; matrix: in vitro; concentration: not given; reference: not given; reading: higher = stronger binding
Target: Histone acetyltransferase KAT6A, winged helix 1, GST fusion (KAT6A, Homo sapiens, UniProt Q92794, residues 1-85)
Setting: 8-mer, flanks averaged, mean of 2 arrays, mostly near background
Construct (chain): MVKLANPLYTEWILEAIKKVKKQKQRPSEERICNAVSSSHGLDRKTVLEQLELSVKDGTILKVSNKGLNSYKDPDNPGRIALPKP
`ACACGTCA` has an E-score of -0.106.
With `CTGGATAC` the E-score was -0.0491.
For `CGGTGAAG`, the E-score was 0.155.
With `ATTACAGC` the E-score was 0.0743.
For `GAGGTGTA`, the E-score was 0.00498.
`AGTTGGTC` gave an E-score of -0.112.
`AGTCGAGC` has an E-score of -0.113.
`ACGCAGTC` has an E-score of -0.0703.
With `CCGCAATA` the E-score was 0.182.
For `ATAATAGC`, the E-score was -0.0927.
`AAGCCATG` has an E-score of -0.179.
`AGACACAA` gave an E-score of -0.199.
For `AGGACCCA`, the E-score was -0.274.
With `AGCGAAGC` the E-score was 0.0453.
The E-score of `CTATAAGA` is reported as -0.11.
For `ATAAGCTA`, the E-score was -0.0839.
`CATGTGTC` has an E-score of -0.0191.
With `TCAACCCA` the E-score was -0.134.
With `ATGTTTAG` the E-score was -0.0765.
The E-score of `AGTAGCTA` is reported as -0.109.
`CGTTCGAC` gave an E-score of 0.0259.
`CGGCGTTC` gave an E-score of 0.382.
The E-score of `GGCTTTAA` is reported as -0.0491.
